Measured values collected from several papers.
Numbered parts are unrelated; each lists some results of a single study. Substitutions count along the parent as printed.

Study 1 — method: protein-binding microarray; molecule type: double-stranded DNA, one strand shown; medium: in vitro; tested at: not given; reading: higher = stronger binding
Target: Protein max, full length (MAX, Homo sapiens, UniProt P61244-2, residues 1-151)
Setting: k-mer, scored over probes, only values ≥0.25
Strand	E-score
ACGCGTCT	0.278
CGCGGCAC	0.297
CGTGTCAC	0.428
AACCACGA	0.305
GTACACGA	0.33
CTCGTGGA	0.425
AAGGCGTG	0.367
ACGACGTG	0.367
GCACCCAC	0.313
ATCACCTG	0.338
ACGAGACG	0.258
CGGGCACA	0.263
ACAACACG	0.37
ACGTGGCC	0.419
CCCCAACC	0.304
ATCAGCAT	0.259
ACACGACC	0.261
CGAGGTCA	0.281

Study 2 — method: protein binding microarray; molecule type: double-stranded DNA, one strand shown; medium: in vitro; tested at: not given; relative to: not given; reading: higher = stronger binding
Target: Histone acetyltransferase KAT6A, winged helix 2, GST fusion (KAT6A, Homo sapiens, UniProt Q92794, residues 85-181)
Setting: 8-mer, flanks averaged, mean of 2 arrays, mostly near background
Residues (chain): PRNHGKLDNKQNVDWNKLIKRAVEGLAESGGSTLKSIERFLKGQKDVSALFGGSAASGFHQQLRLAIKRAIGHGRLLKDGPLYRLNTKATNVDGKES
Strand	E-score
GTCCCGCA	0.0328
GTCAACTA	-0.0315
ATATAGTA	-0.114
GCATATCA	0.128
ACGGAACC	-0.0166
CACGGGAG	-0.0376
TATTCACA	0.0274
AAGTCCCG	-0.0815
AAGTCCGC	0.019
AACACGTC	-0.197
AACCTCAA	-0.104
AACGATGA	-0.08
TATGAATA	-0.0321
CTGGGATC	-0.0335
CTAGCACA	-0.155
CGCCCTAA	-0.0229
GGGCCAAC	0.0669
ATAGATTC	-0.0144
CCCATCAA	0.0457
GGCGTTAA	-0.167
CTGGCGGC	0.168
GCAACTAA	0.196
CAAACAAA	0.0729
CTACAACC	-0.169
ACCCAAGT	-0.0733

Study 3 — method: RNA Bind-n-Seq; molecule type: RNA; medium: in vitro; tested at: not given; relative to: input RNA pool; reading: higher = stronger binding
Target: RING finger protein unkempt homolog, zinc fingers 1-6, GST-SBP tag (UNK, Homo sapiens, UniProt Q9C0B0, residues 30-357)
Setting: RNA with constant flanks, human-mouse chimeric sites, ends assumed
Shared flanks, not repeated: GGGAGUUCUACAGUCCGACGAUC … CAACAGAGGAUUGAGCAUCA
Residues (chain): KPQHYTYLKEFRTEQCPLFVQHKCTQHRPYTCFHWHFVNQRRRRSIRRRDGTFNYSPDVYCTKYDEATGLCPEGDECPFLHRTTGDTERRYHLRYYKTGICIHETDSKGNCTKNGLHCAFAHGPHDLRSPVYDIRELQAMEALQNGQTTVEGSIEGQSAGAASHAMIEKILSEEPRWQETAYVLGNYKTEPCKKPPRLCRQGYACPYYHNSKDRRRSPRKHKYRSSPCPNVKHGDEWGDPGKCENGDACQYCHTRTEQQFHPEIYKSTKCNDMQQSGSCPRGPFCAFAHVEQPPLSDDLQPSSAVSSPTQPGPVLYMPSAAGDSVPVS
Strand	bound/input enrichment [ratio]
AGGAGGAGGUUAAAGGGUGAGAGUGGGAUGGAGGAUUGUGUCAUGGCCCUAGAAACCCUGUUCAGUGUCCUGCUUUCUCUGUGCAGACUGAUGGCCCCUUACACGCCCUUUCUGACUGAG	0.0848
AAAGUGGACUAUGGUGAGUACAUGGAUAAAAAUAAUGUGAGGCGGCAAGCAACAACAAUCAUAGCUGAUAACAUUAUAUUUCUGAGUGACCAGACAAAAGAAAAGGCAUAGAACGGAUGA	1.52
GUUCGACUCUGGGAUCAUGCCACAAUGACAGAAGUGAAAUCUCUGAAUUUUAAUAUGUCUGUUAGCAGUAUGGAAUAUAUUCCUGAAGGAGAGAUUUUGGUUAUUACUUAUGGACGAUCU	0.64
UGUAGUUUCGCGGUUCAAGGUUUUGUGGUAGUUCACUUACGGUAUUAAAUUAUUAUUCUGCUUAGCUUAUAAUAAGGAUAAUUGCAUUUAAAGAGGUUACUGAAUGUUACUCUGAAACUU	0.382
ACUCAGAGAUCCACCUCCCAAAGUGCUGGGAGUAAAGUCUGAUAUUACACACCUAACUUGAUGGAUAUAUAUUUUUUUUAAUAUGAAUCUUCCUGUUCUUCAUCCAGAGAAAGAUUUGUU	0.589
UUGCUACUGACUCCCUGGGUCAAGUUCCUGUGGGAAUCUUACAGGCAGUGUUUGGACCUUCUUAGAAACAAUUCUAGAGUAGAGCGCCUUUACCAUGAUAUCGCCCAACAAGCUUUCAAA	0.257
ACCAUUUUCGCGGUUCAAGGUUUUGUGGUAGUUCACUCUAUGUAUUAAAUUAUUAUUCUGCUUAGCUUAUAAUAAGGAUAAUUGCAUUUAAAGAGGUUACUGAAUGUUACUCUGAAACUU	0.366
AAAUCGUGUGUGUCCAAUAUUGAAAGUGCUUUAUCUACACUCCAGUAUGUAAGCAGCAUAGUAGUUUCUUUAGAGAAUAGGUCAGCCAUUGUAAAGUACAAUGCAAGCUUAGUCACUCCA	11.6

Study 4 — target: CCNA2, cyclin fold, Cln2 fusion (human); method: yeast growth competition, sequencing; medium: yeast; setting: strong parent motif; relative to: not given; reading: higher = stronger binding
Starting sequence: RB1 docking peptide (human); PKPLKKLRFDIEG
Substitution	normalised enrichment score
PKPLKILRFDIEG [K6I]	1.45
PKPLAKLRFDIEG [K5A]	0.561
PKPLGKLRFDIEG [K5G]	-0.22
PKPLKRLRFDIEG [K6R]	1.59
PKPLKKLYFDIEG [R8Y]	1.55
PVPLKKLRFDIEG [K2V]	1.16
PKPLKKLRFDIEL [G13L]	0.646
PKPLKKTRFDIEG [L7T]	0.0755
PKELKKLRFDIEG [P3E]	1.22
PKPLKKLRFDIYG [E12Y]	-0.245
PKPLKKLRFDMEG [I11M]	0.657
PKPSKKLRFDIEG [L4S]	1.6
PKPLKKLRFDCEG [I11C]	0.981
PKPLPKLRFDIEG [K5P]	0.564
PKPLKYLRFDIEG [K6Y]	-0.126
PKPLKKLRFDFEG [I11F]	0.973
PKPLKKLRMDIEG [F9M]	1.11
PKPLKKLRSDIEG [F9S]	0.187
PKPLKKLRHDIEG [F9H]	-0.0146
PKPLKKLRFTIEG [D10T]	0.919
PKTLKKLRFDIEG [P3T]	-0.0929
PKPLKKWRFDIEG [L7W]	1.33
PKPLKCLRFDIEG [K6C]	2.17
PKPLKKLRFLIEG [D10L]	1.29
PKPRKKLRFDIEG [L4R]	4.56

Repeated from above (study 1):
Strand	E-score
ATCAGCAT	0.259
CCCCAACC	0.304
ACGACGTG	0.367
CTCGTGGA	0.425
CGGGCACA	0.263
ACGAGACG	0.258
ATCACCTG	0.338
CGAGGTCA	0.281
AACCACGA	0.305
ACGTGGCC	0.419
ACACGACC	0.261
